Assay results of several laboratories.
Several values in a cell are separate wells, animals, samples, runs or records. ± gives the spread as reported.

O=C1NC2(CCCc3ccccc32)C(=O)N1Cc1c(F)cccc1Cl (stereo not shown) — EC50 (Trypanosoma brucei; viability, flow cytometry; bloodstream form; 24 h): > 25 µM
Oc1ccc(/C=C/c2cc(O)cc(O)c2)cc1 — total spots per fly (Drosophila melanogaster; wing spot test; standard cross, wings; oral, concentration not given): 0.67 Spots per Fly and 0.6 Spots per Fly and 0.57 Spots per Fly
NC(=O)c1ncn([C@@H]2O[C@H](CO)[C@@H](O)[C@H]2O)n1 — SI90 (Zika virus; Vero 76, MR-766; unit not given; reference: CC50 over EC90): 1.6
Cc1nc(C(=O)N2CCCC2c2ccc(F)c(F)c2)c(=O)[nH]c1C (stereo not shown) — EC50 (Trypanosoma brucei; viability, flow cytometry; bloodstream form; 24 h): > 25 µM
COc1cc2nccc(Oc3ccc(NC(=O)Nc4ccc(CC5CCNCC5)cc4)c(F)c3)c2cc1OC — selectivity index (Plasmodium falciparum; HepG2, 3D7; reference: HepG2 CC50 over P. falciparum EC50): 27 fold
CCCCCCCCCCCC(=O)OCCN — intrinsic clearance in vivo (Oncorhynchus mykiss; liver S9 substrate depletion; pooled rainbow trout liver S9; pH 7.8, tested individually): 357 mL/h/g liver
Nc1ncnc2c([C@@H]3N[C@H](CO)[C@@H](O)[C@H]3O)c[nH]c12 — SI90 (Zika virus; Vero 76, MR-766; unit not given; reference: CC50 over EC90): 11.6
CCCCCCCCN(C)C — intrinsic clearance in vivo (Oncorhynchus mykiss; liver S9 substrate depletion; pooled rainbow trout liver S9; pH 7.8, tested individually): 201 mL/h/g liver
COc1cc2nccc(Oc3ccc(NC(=O)Nc4ccc(CC5CCNCC5)c(C(F)(F)F)c4)c(F)c3)c2cc1OC — selectivity index (Plasmodium falciparum; HepG2, 3D7; reference: HepG2 CC50 over P. falciparum EC50): 33 fold
CCCCCCCCCCCCCN — intrinsic clearance in vivo (Oncorhynchus mykiss; liver S9 substrate depletion; pooled rainbow trout liver S9; pH 7.8, tested individually): 17 mL/h/g liver
Clc1ccc(C(c2ccc(Cl)cc2)n2cc[n+](CC(OCc3ccc(Cl)cc3Cl)c3ccc(Cl)cc3Cl)c2)cc1 (stereo not shown) — EC50 (Trypanosoma brucei; cell viability, flow cytometry, PI; bloodstream form; 24 h): 0.55 ± 0.03 µM
CCCCCCCCCCCCCCCCNC — intrinsic clearance in vitro (Oncorhynchus mykiss; liver S9 substrate depletion; rainbow trout liver S9; tested individually): 0.215 mL/h/mg S9 protein
O=C(CCc1c(-c2ccc(F)cc2)[nH]c2ccc(F)cc12)N1CCN(c2ccncc2)CC1 — EC50 (Trypanosoma brucei; viability, flow cytometry; bloodstream form; 24 h): 5.2 ± 3.2 µM

Excerpt of the above:
COc1cc2nccc(Oc3ccc(NC(=O)Nc4ccc(CC5CCNCC5)c(C(F)(F)F)c4)c(F)c3)c2cc1OC — selectivity index (Plasmodium falciparum; HepG2, 3D7; reference: HepG2 CC50 over P. falciparum EC50): 33 fold
